Measurements pooled from the literature.
Lines come from different studies, so protocols differ. ± gives the spread as reported.
Sequence of UniProt P30989 (whole entry, looked up): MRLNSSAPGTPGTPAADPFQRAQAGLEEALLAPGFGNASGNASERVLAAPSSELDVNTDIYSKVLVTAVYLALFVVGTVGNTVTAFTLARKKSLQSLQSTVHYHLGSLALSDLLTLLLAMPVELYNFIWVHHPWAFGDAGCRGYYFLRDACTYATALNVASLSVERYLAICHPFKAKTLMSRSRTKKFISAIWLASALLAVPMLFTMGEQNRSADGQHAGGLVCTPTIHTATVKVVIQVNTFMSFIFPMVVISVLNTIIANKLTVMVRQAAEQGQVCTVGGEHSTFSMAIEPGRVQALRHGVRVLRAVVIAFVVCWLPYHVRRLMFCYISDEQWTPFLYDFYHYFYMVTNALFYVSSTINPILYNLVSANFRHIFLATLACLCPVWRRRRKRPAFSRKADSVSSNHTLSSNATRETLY
Sequence of UniProt P69687 (whole entry, looked up): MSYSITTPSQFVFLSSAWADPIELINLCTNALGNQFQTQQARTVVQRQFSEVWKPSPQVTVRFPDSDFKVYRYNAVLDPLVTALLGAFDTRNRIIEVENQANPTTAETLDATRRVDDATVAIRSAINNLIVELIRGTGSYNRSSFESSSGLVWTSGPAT
Sequence of UniProt Q05097 (whole entry, looked up): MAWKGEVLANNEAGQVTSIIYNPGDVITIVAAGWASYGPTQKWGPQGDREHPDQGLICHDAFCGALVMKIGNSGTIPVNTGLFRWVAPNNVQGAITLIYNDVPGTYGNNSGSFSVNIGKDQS
Sequence of UniProt Q9NZC7 (whole entry, looked up): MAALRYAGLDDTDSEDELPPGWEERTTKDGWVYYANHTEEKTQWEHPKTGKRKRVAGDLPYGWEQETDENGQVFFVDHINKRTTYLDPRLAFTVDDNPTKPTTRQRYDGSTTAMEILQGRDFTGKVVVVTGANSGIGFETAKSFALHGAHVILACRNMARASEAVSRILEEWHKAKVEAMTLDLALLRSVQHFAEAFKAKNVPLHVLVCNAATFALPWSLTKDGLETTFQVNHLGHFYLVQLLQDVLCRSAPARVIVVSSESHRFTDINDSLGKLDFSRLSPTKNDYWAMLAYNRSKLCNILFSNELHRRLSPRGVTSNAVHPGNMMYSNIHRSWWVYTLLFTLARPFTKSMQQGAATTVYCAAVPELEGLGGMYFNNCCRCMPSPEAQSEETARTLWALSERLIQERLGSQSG
Sequence of UniProt O35082 (whole entry, looked up): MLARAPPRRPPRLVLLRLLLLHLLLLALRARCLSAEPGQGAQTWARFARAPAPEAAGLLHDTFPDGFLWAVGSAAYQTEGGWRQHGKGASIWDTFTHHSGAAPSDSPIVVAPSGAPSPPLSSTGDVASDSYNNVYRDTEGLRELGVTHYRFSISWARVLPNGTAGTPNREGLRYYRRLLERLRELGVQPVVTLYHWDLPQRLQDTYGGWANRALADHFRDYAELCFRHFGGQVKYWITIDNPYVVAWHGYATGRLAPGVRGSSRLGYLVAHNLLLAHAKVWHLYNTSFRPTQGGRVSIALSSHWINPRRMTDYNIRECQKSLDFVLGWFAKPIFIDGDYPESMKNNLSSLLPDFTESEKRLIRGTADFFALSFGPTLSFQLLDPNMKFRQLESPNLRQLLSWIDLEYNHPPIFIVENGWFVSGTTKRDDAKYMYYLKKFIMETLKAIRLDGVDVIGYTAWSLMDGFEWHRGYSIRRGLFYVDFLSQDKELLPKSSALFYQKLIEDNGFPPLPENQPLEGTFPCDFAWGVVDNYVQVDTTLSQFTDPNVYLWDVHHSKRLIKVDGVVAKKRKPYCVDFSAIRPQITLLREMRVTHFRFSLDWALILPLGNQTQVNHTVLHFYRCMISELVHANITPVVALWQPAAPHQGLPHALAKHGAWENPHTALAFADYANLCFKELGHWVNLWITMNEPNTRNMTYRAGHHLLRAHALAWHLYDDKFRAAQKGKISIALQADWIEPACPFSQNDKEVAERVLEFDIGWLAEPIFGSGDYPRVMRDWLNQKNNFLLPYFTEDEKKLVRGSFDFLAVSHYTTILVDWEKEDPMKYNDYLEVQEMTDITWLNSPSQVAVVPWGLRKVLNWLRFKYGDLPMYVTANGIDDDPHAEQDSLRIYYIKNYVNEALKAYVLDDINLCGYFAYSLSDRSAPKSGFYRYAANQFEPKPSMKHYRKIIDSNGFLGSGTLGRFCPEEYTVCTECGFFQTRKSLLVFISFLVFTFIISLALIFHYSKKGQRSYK
Sequence of UniProt P63165 (whole entry, looked up): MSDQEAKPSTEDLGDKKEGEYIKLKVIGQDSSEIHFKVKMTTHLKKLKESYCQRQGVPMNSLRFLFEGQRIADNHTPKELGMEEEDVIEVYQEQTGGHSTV
Sequence of UniProt P12004 (whole entry, looked up): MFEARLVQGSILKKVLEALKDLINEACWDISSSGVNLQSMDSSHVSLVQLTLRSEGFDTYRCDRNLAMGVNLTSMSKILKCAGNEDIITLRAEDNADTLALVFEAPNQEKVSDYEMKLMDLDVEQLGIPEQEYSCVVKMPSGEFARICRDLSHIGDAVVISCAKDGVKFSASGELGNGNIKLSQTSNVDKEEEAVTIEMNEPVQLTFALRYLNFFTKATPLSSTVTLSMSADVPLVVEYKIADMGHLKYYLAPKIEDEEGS
Sequence of UniProt P27017 (whole entry, looked up): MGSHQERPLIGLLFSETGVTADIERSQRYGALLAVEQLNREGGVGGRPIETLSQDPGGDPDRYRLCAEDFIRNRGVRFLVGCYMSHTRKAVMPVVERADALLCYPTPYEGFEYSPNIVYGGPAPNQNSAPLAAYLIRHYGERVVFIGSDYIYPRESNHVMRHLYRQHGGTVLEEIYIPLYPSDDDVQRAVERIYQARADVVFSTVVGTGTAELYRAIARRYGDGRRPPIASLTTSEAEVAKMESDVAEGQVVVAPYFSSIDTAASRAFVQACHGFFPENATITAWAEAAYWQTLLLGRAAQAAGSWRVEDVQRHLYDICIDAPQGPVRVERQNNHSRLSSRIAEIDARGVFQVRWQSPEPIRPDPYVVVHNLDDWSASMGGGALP
Sequence of UniProt O66465 (whole entry, looked up): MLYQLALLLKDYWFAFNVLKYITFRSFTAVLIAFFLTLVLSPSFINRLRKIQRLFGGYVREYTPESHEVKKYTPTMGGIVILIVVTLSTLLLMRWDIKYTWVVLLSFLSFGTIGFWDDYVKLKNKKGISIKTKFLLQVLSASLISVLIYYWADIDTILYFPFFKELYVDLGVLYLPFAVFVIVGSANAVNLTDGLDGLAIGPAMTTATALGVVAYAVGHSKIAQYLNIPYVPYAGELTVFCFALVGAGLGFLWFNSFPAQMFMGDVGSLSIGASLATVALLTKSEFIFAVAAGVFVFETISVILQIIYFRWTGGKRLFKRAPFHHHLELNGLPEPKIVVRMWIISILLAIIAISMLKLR
Sequence of UniProt P10686 (whole entry, looked up): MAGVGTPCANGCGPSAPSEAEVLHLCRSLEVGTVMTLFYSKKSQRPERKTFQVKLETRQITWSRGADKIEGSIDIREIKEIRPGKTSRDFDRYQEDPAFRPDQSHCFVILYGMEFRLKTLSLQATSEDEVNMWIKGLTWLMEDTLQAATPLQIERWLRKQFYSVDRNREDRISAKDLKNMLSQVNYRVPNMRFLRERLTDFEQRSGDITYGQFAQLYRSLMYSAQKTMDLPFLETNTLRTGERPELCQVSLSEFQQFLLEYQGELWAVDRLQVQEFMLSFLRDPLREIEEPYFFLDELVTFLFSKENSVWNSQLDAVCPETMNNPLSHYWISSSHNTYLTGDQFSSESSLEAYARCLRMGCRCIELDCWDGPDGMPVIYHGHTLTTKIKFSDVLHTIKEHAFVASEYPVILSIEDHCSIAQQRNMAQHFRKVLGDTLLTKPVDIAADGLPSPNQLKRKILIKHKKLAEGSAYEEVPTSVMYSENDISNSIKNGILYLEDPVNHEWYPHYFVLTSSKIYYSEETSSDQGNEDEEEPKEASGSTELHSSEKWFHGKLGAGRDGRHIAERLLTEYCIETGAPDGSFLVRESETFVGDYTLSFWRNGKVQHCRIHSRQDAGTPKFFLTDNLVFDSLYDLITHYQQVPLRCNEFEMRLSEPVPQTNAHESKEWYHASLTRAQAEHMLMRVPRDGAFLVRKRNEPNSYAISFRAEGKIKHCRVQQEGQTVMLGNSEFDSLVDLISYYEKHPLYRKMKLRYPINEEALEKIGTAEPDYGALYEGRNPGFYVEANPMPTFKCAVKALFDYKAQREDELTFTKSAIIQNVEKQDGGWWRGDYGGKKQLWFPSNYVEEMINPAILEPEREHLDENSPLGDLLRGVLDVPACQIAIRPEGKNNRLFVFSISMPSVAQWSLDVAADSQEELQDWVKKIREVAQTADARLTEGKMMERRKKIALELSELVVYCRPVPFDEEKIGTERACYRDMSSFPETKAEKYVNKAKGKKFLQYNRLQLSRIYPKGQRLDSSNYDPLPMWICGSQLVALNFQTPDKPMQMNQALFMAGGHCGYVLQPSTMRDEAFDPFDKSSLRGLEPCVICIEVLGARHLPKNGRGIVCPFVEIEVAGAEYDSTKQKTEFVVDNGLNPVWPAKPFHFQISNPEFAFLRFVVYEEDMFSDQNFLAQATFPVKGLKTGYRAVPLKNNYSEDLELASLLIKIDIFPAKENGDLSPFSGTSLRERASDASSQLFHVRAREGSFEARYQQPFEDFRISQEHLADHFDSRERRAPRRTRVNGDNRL
Sequence of UniProt P63104 (whole entry, looked up): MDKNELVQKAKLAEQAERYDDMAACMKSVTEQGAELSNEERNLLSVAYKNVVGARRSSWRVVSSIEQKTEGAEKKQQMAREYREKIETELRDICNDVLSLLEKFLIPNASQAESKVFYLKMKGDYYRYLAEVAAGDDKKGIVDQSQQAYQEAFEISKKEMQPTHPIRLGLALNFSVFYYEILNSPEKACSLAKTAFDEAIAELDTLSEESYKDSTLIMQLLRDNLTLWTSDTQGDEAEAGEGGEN

CC(C)C[C@H](NC(=O)[C@H](CCCNC(=N)N)NC(=O)[C@H](CCC(=O)O)NC(=O)[C@H](CCCCN)NC(=O)[C@H](CCCNC(=N)N)NC(=O)[C@H](CCCCN)NC(=O)[C@]1(C)CCCC=CCCC[C@](C)(NC(=O)[C@H](CC(C)C)NC(=O)[C@H](CO)NC(=O)[C@]2(C)CCCC=CCCC[C@](C)(NC(=O)[C@@H]3CCCN3C(=O)[C@@H](NC(=O)[C@H](CO)NC(=O)c3ccc4c(c3)C(=O)OC43c4ccc(N(C)C)cc4Oc4cc(N(C)C)ccc43)C(C)C)C(=O)N[C@@H](C)C(=O)N[C@@H](CCCNC(=N)N)C(=O)N[C@@H](CCCCN)C(=O)N2)C(=O)N[C@@H](CCCNC(=N)N)C(=O)N[C@@H](Cc2ccccc2)C(=O)N[C@@H](CC(C)C)C(=O)N1)C(=O)O  Kd (Transcription factor MYC3 (MYC3, Arabidopsis thaliana, UniProt Q9FIP9); binding, fluorescence anisotropy; pH 8.0, apparent Kd, together with: 100 nM TMR-labelled JAZ peptide): 0.1 ± 0.02 µM
CC[C@H](C)[C@H](NC(=O)[C@H](Cc1c[nH]cn1)NC(=O)[C@H](CCCCNC(=O)[C@@H](NC(=O)[C@H](CCCCN)NC(=O)CSC[C@H](NC(=O)[C@H](Cc1ccccc1)NC(=O)[C@H](CCCCNC(=O)[C@H](CC(C)C)NC(=O)[C@@H]1CCCN1C(=O)[C@H](CCCCN)NC(=O)CCS[C@@H]1O[C@H](CO)[C@H](O)[C@H](O)[C@H]1O)NC(=O)[C@H](CC(C)C)NC(=O)[C@@H]1CCCN1C(=O)[C@H](CCCCN)NC(=O)C[C@@H]1O[C@@H](C)[C@@H](O)[C@@H](O)[C@@H]1O)C(N)=O)[C@@H](C)CC)NC(=O)[C@@H](NC(=O)[C@H](CCCCN)NC(=O)CSC[C@H](NC(=O)[C@H](Cc1ccccc1)NC(=O)[C@H](CCCCNC(=O)[C@H](CC(C)C)NC(=O)[C@@H]1CCCN1C(=O)[C@H](CCCCN)NC(=O)CCS[C@@H]1O[C@H](CO)[C@H](O)[C@H](O)[C@H]1O)NC(=O)[C@H](CC(C)C)NC(=O)[C@@H]1CCCN1C(=O)[C@H](CCCCN)NC(=O)C[C@@H]1O[C@@H](C)[C@@H](O)[C@@H](O)[C@@H]1O)C(N)=O)[C@@H](C)CC)C(N)=O  Kd (PA-I galactophilic lectin (lecA, Pseudomonas aeruginosa, UniProt Q05097); binding, ITC; pH 7.5): 0.255 µM
CC[C@H](C)[C@H](NC(=O)[C@H](C)NC(=O)[C@H](Cc1c[nH]c2ccccc12)NC(=O)[C@H](CCC(=O)O)NC(=O)[C@H](CO)NC(=S)Nc1ccc2c(c1)C(=O)OC21c2ccc(O)cc2Oc2cc(O)ccc21)C(=O)N[C@H](C(=O)N[C@H](C(=O)N1CCC[C@H]1C(=O)N[C@@H](Cc1ccccc1)C(=O)N[C@@H](CC(C)C)C(=O)N[C@H](C(=O)N[C@@H](CC(N)=O)C(=O)N[C@@H](CC(C)C)C(=O)O)[C@@H](C)O)[C@@H](C)CC)C(C)C  Kd (Rgg transcriptional regulator (Streptococcus pneumoniae, UniProt A0A0E7KI02); binder, fluorescence polarization; 20 min, pH 7.4, 20 °C, fluorescein-labelled peptide): 9.7 ± 0.6 µM
CC[C@H](C)[C@@H]1NC(=O)[C@H](CCCNC(=N)N)NC(=O)[C@H](CC(=O)O)NC(=O)[C@H](CC(C)C)NC(=O)[C@H](CCCCN)NC(=O)[C@H](CC(C)C)NC(=O)CNC(=O)[C@H](Cc2ccccc2)NC(=O)[C@@H](NC(=O)CNC(=O)[C@H](CCCCN)NC(=O)[C@H](CO)NC(=O)[C@H](CC(C)C)NC(=O)CN)CSSC[C@@H](C(=O)O)NC(=O)CNC(=O)[C@H](CC(C)C)NC(=O)CNC(=O)[C@H](CO)NC(=O)[C@H](CCSC)NC(=O)[C@H](CO)NC(=O)CNC1=O  Kd (Aliphatic amidase expression-regulating protein (amiC, Pseudomonas aeruginosa, UniProt P27017); binding, microscale thermophoresis; pH 7.5, 25 °C): 2 ± 0.3 µM
Cc1ccc(/C=C/C(=O)c2ccc(OS(=O)(=O)c3cccs3)cc2)cc1  Kd (CP, capsid (Tobacco mosaic virus, UniProt P69687); binding, MST): 56.4 µM
CC[C@H](C)[C@H](NC(=O)[C@H](Cc1ccc(O)cc1)NC(=O)[C@@H]1CCCN1C(=O)[C@H](CCCCN)NC(=O)[C@H](CCCCN)NC(=O)CCNC(=O)CCNC(=O)[C@H](CCC(=O)NCCC(=O)NCCC(=O)N[C@@H](Cc1ccc(OCC(=O)N[C@@H](Cc2ccccc2)C(=O)NCCCC[C@H](NC(=O)N[C@@H](CCC(=O)O)C(=O)O)C(=O)O)cc1)C(=O)O)NC(=O)CCNC(=O)CCNC(=O)CN1CCN(CC(=O)O)CCN(CC(=O)O)CCN(CC(=O)O)CC1)C(=O)N[C@@H](CC(C)C)C(=O)O [gallium-68 labelled]  Kd (Neurotensin receptor type 1 (NTSR1, Homo sapiens, UniProt P30989); saturation binding; HT-29; 2 h, 4 °C): 0.246 µM
CC(C)P(=S)(NP(=S)(C(C)C)C(C)C)C(C)C  Kd (Alpha-amylase (Bacillus subtilis, UniProt P00691); fluorescence quenching; 298 K): 1340 µM
NCC1OC(OC(CO)C2CC(O)C(n3ccc(=O)[nH]c3=O)O2)C(O)C1O (stereo not drawn)  Kd (Phospho-N-acetylmuramoyl-pentapeptide-transferase (mraY, Aquifex aeolicus, UniProt O66465); binding, ITC): 0.283 µM
CSCC[C@H](NC(=O)[C@H](CO)NC(=O)[C@H](CC(C)C)NC(=O)[C@H](CC(=O)O)NC(=O)[C@H](CC(C)C)NC(=O)[C@H](Cc1ccc(OP(=O)(O)O)cc1)NC(=O)[C@H](CCC(=O)O)NC(=O)[C@H](CCC(N)=O)NC(=O)[C@H](CC(N)=O)NC(=O)[C@H](CO)NC(=O)[C@@H](N)[C@@H](C)O)C(N)=O  Kd (1-phosphatidylinositol 4,5-bisphosphate phosphodiesterase gamma-1, N-terminal SH2 domain (Rattus norvegicus, UniProt P10686); N-SH2 domain binding, isothermal titration calorimetry; 25 °C): 0.433 ± 0.213 µM
CSCC[C@H](NC(=O)[C@@H](N)Cc1ccc(O)cc1)C(=O)N[C@@H](CO)C(=O)N[C@@H](Cc1ccccc1)C(=O)N[C@H](C(=O)N[C@@H](CCCNC(=N)N)C(=O)N[C@@H](CCCNC(=N)N)C(=O)N[C@H](C(=O)N[C@@H](CCC(=O)O)C(=O)N[C@@H](CO)C(=O)N[C@@H](CC(=O)O)C(=O)N[C@@H](CCCCN)C(=O)N[C@@H](CC(C)C)C(=O)N[C@@H](Cc1c[nH]cn1)C(=O)N[C@@H](CO)C(=O)O)[C@@H](C)O)[C@@H](C)O  Kd (Prothrombin (F2, Homo sapiens, UniProt P00734); microscale thermophoresis; 1 h, labelled thrombin): 0.29 µM
CC(C)C[C@H](NC(=O)[C@H](Cc1c[nH]cn1)NC(=O)[C@H](C)N)C(=O)N[C@@H](CCCNC(=N)N)C(=O)N[C@@H](Cc1ccc(O)cc1)C(=O)N[C@@H](Cc1c[nH]cn1)C(=O)N[C@@H](Cc1c[nH]cn1)C(=O)N[C@@H](Cc1c[nH]cn1)C(=O)N[C@@H](C)C(=O)N[C@H](C(=O)N1CCC[C@H]1C(=O)N[C@@H](C)C(=O)O)C(C)C  Kd (Small ubiquitin-related modifier 1 (Homo sapiens, UniProt P63165); binding, BLI): 0.124 µM
CSCC[C@@H]1NC(=O)[C@H](CO)NC(=O)[C@@H](NC(=O)[C@H](CCC(N)=O)NC(=O)[C@H](CCCNC(=N)N)NC(C)=O)CSCc2cccc(c2)CSC[C@@H](C(=O)N[C@@H](Cc2ccccc2)C(=O)N[C@@H](Cc2ccc(O)cc2)C(=O)N[C@@H](Cc2c[nH]cn2)C(=O)N[C@@H](CO)C(=O)N[C@@H](CCCCN)C(N)=O)NC(=O)[C@H]([C@@H](C)O)NC1=O  Kd (Proliferating cell nuclear antigen (PCNA, Homo sapiens, UniProt P12004); binding, SPR): 3.86 µM
C=CCOC(=O)NCCC[C@@H](NC(=O)[C@H](CCCNC(=N)N)NC(=O)[C@H](C)NC(=O)[C@H](CCCNC(=N)N)NC(=O)CNC(=O)[C@H](CCCNC(=N)N)NC(=O)[C@@H](NC(=O)[C@@H](NC(=O)CNC(=O)[C@H](CC(C)C)NC(=O)[C@@H]1CCCN1C(=O)[C@H](CC(=O)O)NC(=O)[C@H](CO)NC(=O)[C@H](C)NC(=O)c1cc(-c2ccccc2)nc2ccccc12)C(C)C)C(C)C)C(N)=O  Kd (Klotho (Kl, Mus musculus, UniProt O35082); BLI competition binding; 30 min, 30 °C, together with: 100 nM mouse Klotho, immobilized Pep-10-Biotin): 0.0009 ± 0.0003 µM
C#CC[C@H](NC(=O)CNC(=O)[C@H](CO)NC(=O)[C@@H]1CCCCNC(=O)CCCC(=O)N[C@@H](CCSC)C(=O)N[C@@H](Cc2c[nH]c3ccccc23)C(=O)N2CCC[C@H]2C(=O)N[C@@H](Cc2c[nH]cn2)C(=O)N[C@@H](CCCNC(=N)N)C(=O)N[C@@H](C(C)C)C(=O)N[C@@H]([C@@H](C)O)C(=O)N[C@@H](C)C(=O)N(C)[C@@H](C)C(=O)N1)C(=O)O  Kd (Microtubule-associated protein 1 light chain 3 beta (Homo sapiens, UniProt Q9GZQ8); fluorescence polarization): 0.192 ± 0.039 µM
CC[C@H](C)[C@H](NC(=O)[C@@H]1CCCN1C(=O)[C@@H]1CCCN1C(=O)[C@@H]1CCCN1C(=O)[C@@H](NC(=O)[C@H](CC(N)=O)NC(=O)[C@H](Cc1ccccc1)NC(=O)[C@H](C)N)[C@@H](C)CC)C(=O)N[C@@H](Cc1ccc(O)cc1)C(=O)N[C@H](C(=O)N[C@@H](CO)C(=O)N[C@@H](CCCNC(=N)N)C(=O)N[C@@H](C)C(=O)NCC(=O)NCC(=O)NCC(=O)NCC(=O)NCC(=O)N[C@H](C(=O)N[C@H](C(=O)N[C@@H](CC(C)C)C(=O)N1CCC[C@H]1C(=O)N1CCC[C@H]1C(=O)N1CCC[C@H]1C(=O)N1CCC[C@H]1C(=O)N[C@@H](Cc1ccc(O)cc1)C(=O)N[C@@H](CCCNC(=N)N)C(=O)N[C@@H](Cc1c[nH]cn1)C(=O)N[C@@H](CCCNC(=N)N)C(=O)N[C@@H](CC(N)=O)C(=O)O)C(C)C)[C@@H](C)O)[C@@H](C)O  Kd (WW domain-containing oxidoreductase, WW1-WW2 tandem domains (WWOX, Homo sapiens, UniProt Q9NZC7); ITC; tandem WW1-WW2 domain; pH 7.8, 20 °C, some values lower limits only): 8 ± 1.3 µM
CC(=O)N[C@@H](CCCNC(=N)N)C(=O)N[C@H](C(=O)N1CCC[C@H]1C(=O)N[C@@H](COP(=O)(O)O)C(=O)N[C@@H](CC(C)C)C(=O)N1CCC[C@H]1C(=O)N[C@H](C(=O)N1CCC[C@H]1C(c1ccccc1)c1ccccc1)C(C)C)[C@@H](C)O  Kd (14-3-3 protein zeta/delta (YWHAZ, Homo sapiens, UniProt P63104); binding, ITC): 2.2 µM
CC(=O)NC1C(OC2C(O)C(CO)OC(O)C2OC2OC(C)C(O)C(O)C2O)OC(CO)C(O)C1O (stereo not drawn)  Kd (sly, domain 4 (Streptococcus suis, UniProt Q55996); binding): 0.0044 µM
CC[C@H](C)[C@H](NC(=O)[C@@H]1CSCc2cccc(c2)CSC[C@H](NC(=O)[C@@H](NC(=O)[C@H](Cc2ccc(O)cc2)NC(=O)[C@H](CO)NC(=O)[C@H](Cc2ccccc2)NC(=O)[C@H](CCSC)NC(C)=O)C(C)C)C(=O)N[C@@H]([C@@H](C)O)C(=O)N[C@@H](CC(C)C)C(=O)N[C@@H](CCCCN)C(=O)N[C@@H](CO)C(=O)N1)C(=O)N[C@@H](C)C(=O)N[C@@H](CCSC)C(=O)N[C@@H](Cc1c[nH]cn1)C(=O)NCC(=O)N[C@@H](CO)C(=O)NCC(=O)N[C@@H](CO)C(=O)NCC(=O)N[C@@H](CO)C(=O)N[C@@H](CC(=O)O)C(=O)N[C@@H](Cc1ccc(O)cc1)C(=O)N[C@@H](CCCCN)C(=O)N[C@@H](CC(=O)O)C(=O)N[C@@H](CC(=O)O)C(=O)N[C@@H](CC(=O)O)C(=O)N[C@@H](CC(=O)O)C(=O)N[C@@H](CCCCN)C(N)=O  Kd (Fibroblast growth factor receptor 4 (FGFR4, Homo sapiens, UniProt P22455); binding, BLI): > 10 µM

Excerpt of the above:
CC[C@H](C)[C@@H]1NC(=O)[C@H](CCCNC(=N)N)NC(=O)[C@H](CC(=O)O)NC(=O)[C@H](CC(C)C)NC(=O)[C@H](CCCCN)NC(=O)[C@H](CC(C)C)NC(=O)CNC(=O)[C@H](Cc2ccccc2)NC(=O)[C@@H](NC(=O)CNC(=O)[C@H](CCCCN)NC(=O)[C@H](CO)NC(=O)[C@H](CC(C)C)NC(=O)CN)CSSC[C@@H](C(=O)O)NC(=O)CNC(=O)[C@H](CC(C)C)NC(=O)CNC(=O)[C@H](CO)NC(=O)[C@H](CCSC)NC(=O)[C@H](CO)NC(=O)CNC1=O  Kd (Aliphatic amidase expression-regulating protein (amiC, Pseudomonas aeruginosa, UniProt P27017); binding, microscale thermophoresis; pH 7.5, 25 °C): 2 ± 0.3 µM
Cc1ccc(/C=C/C(=O)c2ccc(OS(=O)(=O)c3cccs3)cc2)cc1  Kd (CP, capsid (Tobacco mosaic virus, UniProt P69687); binding, MST): 56.4 µM
CC[C@H](C)[C@H](NC(=O)[C@H](Cc1ccc(O)cc1)NC(=O)[C@@H]1CCCN1C(=O)[C@H](CCCCN)NC(=O)[C@H](CCCCN)NC(=O)CCNC(=O)CCNC(=O)[C@H](CCC(=O)NCCC(=O)NCCC(=O)N[C@@H](Cc1ccc(OCC(=O)N[C@@H](Cc2ccccc2)C(=O)NCCCC[C@H](NC(=O)N[C@@H](CCC(=O)O)C(=O)O)C(=O)O)cc1)C(=O)O)NC(=O)CCNC(=O)CCNC(=O)CN1CCN(CC(=O)O)CCN(CC(=O)O)CCN(CC(=O)O)CC1)C(=O)N[C@@H](CC(C)C)C(=O)O [gallium-68 labelled]  Kd (Neurotensin receptor type 1 (NTSR1, Homo sapiens, UniProt P30989); saturation binding; HT-29; 2 h, 4 °C): 0.246 µM
